Published values collected from several papers.
Each numbered part is a random draw from the data of one study; scales do not carry over between parts.

Set 1 — technique: protein-binding microarray; molecule type: double-stranded DNA, one strand shown; medium: in vitro; concentration: 2540 nM top; notes: 60-bp whole probe; with: salmon DNA 0.4 mg/ml; reference: random background probes; reading: higher = stronger binding; shared flanks, not repeated: GCCTAGCAC … GTCTTGATTCGCTTGACGCTGCTG
Target: Interferon regulatory factor 3, full length, phosphomimetic (IRF3, Homo sapiens, UniProt Q14653, residues 1-427, S386D/S396D/S398D/S402D/T404D/S405D)
Target sequence (chain): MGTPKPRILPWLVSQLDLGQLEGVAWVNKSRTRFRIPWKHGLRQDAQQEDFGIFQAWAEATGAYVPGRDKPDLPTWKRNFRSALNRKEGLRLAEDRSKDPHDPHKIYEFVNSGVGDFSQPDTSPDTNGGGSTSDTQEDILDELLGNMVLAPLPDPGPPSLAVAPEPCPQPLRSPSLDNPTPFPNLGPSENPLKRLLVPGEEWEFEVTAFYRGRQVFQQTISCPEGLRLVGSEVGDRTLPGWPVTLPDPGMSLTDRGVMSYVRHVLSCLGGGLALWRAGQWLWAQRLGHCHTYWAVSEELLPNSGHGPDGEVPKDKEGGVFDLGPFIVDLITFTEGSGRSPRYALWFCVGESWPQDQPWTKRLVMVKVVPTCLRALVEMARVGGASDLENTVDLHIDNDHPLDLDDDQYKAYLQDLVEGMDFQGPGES
Oligonucleotide	fitted relative affinity [z-score]
TCATATTAAATTTTCACACTGTGCTAG	1.19
GACGGTATGGGTTTCGGGACGTGCTAG	1.42
TAAGATATCGGGACTGGATTAGTGCTA	-0.126
GACGTTTTCCTACTGCTGACGTGCTAG	3.11
GACGGTTTCCGTCTCCTGACGTGCTAG	6.39
CTAGAACTGGGGACTGGATTAGTGCTA	-0.631
GACGGACTGGGTCTGGGGACGTGCTAG	-0.914
TAGTTTTCATTTTCTGAATGTGTGCTA	5.92
CAGATTTGGCATATCTATTTGTGCTAG	0.618
TAAGATCTCAGTCTCGATTAGTGCTAG	0.607
GCATCTATCTTAAATAGGGACGTGCTA	0.985
GACGGACTCGGTTTCGGGACGTGCTAG	2.86
TTAGGTAACGGTCTCGGTTAGTGCTAG	0.472
GACGGTATCGGGTATCGCGACGTGCTA	1.5
TTAGGTATCGGACTTGGTTAGTGCTAG	2.41
TTAGAACTGGACTTTCGGTTAGTGCTA	1.2
TTATGACTGGGGTATCGGTTAGTGCTA	0.188
TCATTTCTATTTTCTGAACTGTGCTAG	3.71
TTAGATATCAGACTGGATGAGTGCTAG	0.151
TGAGGTTTCCTTCTCCTTTAGTGCTAG	10.1
ATAGATTTCGGGTATCGATTAGTGCTA	1.67
TTAGATTTCAGTTTCGATCAGTGCTAG	4.66
GAAGGTCTCGGTATCGGGACGTGCTAG	1.35

Set 2 — technique: RNA Bind-n-Seq; molecule type: RNA; medium: in vitro; concentration: not given; notes: RNA with constant flanks, ends assumed; reference: input RNA pool; reading: higher = stronger binding
Target: RING finger protein unkempt homolog, zinc fingers 1-6, GST-SBP tag (UNK, Homo sapiens, UniProt Q9C0B0, residues 30-357)
Sequence of UniProt Q9C0B0 (30-357, looked up): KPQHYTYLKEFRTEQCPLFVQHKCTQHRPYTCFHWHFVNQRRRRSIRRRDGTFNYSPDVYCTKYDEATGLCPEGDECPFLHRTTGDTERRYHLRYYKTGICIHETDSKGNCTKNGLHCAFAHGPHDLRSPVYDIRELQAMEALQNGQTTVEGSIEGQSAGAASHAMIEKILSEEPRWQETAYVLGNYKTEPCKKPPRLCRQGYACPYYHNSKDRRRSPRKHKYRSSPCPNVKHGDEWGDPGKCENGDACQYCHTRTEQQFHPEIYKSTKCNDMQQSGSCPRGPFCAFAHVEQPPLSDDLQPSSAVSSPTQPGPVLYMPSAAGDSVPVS
Shared flanks, not repeated: GGGAGUUCUACAGUCCGACGAUC … CAACAGAGGAUUGAGCAUCA
Oligonucleotide	bound/input enrichment [ratio]
CUCACGCAGCAGUUGUGGUCAAUAUUGUGGUAGUCGCUAAUUGUACUGGUUUAAGUGUGCAUCCGCCGUGUCUCCCCAGCUAGAUUGUAAGCUCCUGGAGACAGGGACCACCUCCACCAA	0.3
AACGAUGUUGAAGUCAAAUGGAUUGAAUACCAGAAUAUGGUGAACUACCUCAUCCAGUGGAUCCGACACCACGUGGUCACUAUGUCCGAGAGAACAUUUCCUAACAACCCUCUAGAACUA	0.171
CGGUGUGUUGUCUGUUGUUAAUUCCAUUCCCUCCGUGUGUUUCCUUAAAAGCUUCUGUCUAUCCGUGGCUUCCUGUGCUCUGGGCACUUAACUCCUAAUCUUUCAAACACCGGGAUGCAA	0.591
CACAAGUGGAUGGUACUUUUGGAAACUGAACUCUUGUUGUUUUGUUUUUUUAUUGUAAGUCUCCGCCCUUAAUGGCUGAGUUGUCUCUUUAACCAGGAUGGCACUUUUAGGAAUGGUGAC	1.88
UUUAUAGAAAUCACCGAUGACCAGUUUGACUUUCAUACAUACUGUAUGAGGAAGAUCACCCUCCGAUCAUAUGUGGACUUAUUAAAACUAGAAGAUGUACUUCGACAGCAUCCAUUUUAC	0.834
AGCAUGGACUCGAAAGCAAAUAUUGUACAUGGUCUAUCAGUCUUGGAAAUCUGUCUUAUAACCGCAAUGAAACAUUUAAAUGACAUCUAUGAGGAAGAGCCAUUUAAUUUUCAAAUGGUC	0.183
UUCGGUGUUAUCCGGUCACUCAUGGCCUUUAGGCUGACAGGUGGCACCAAAGACUACAUUGCCGUUGGCAGUGACUCUGGUCGAAUUGUUAUUUUGGAAUACCAGCCAUCUAAGAAUAUG	0.136
CAUGACAGCAACACCGAUAUGUUUCAGAUUGGCCGGUCGACUGAAAGCCCCAUUGAUUUUGCCGUAACUGACACGGUUCCUGGAAGUCAAAGUAAUUCUGAUACACAGUCAGUACAAAGC	0.0701
CGCACCACCAGAGGAAAGCGGAAGAGAGUUGAUGUGGAGGAGUCGGAGGCGAGCAGCAGUGUCCGCAUUUCCCACUCUGCCUCAGCCACGGGGAACGUGUGCAUUGAAGAGAUAGAUGUU	0.281
AUAUCUAUACACACAUGUGUGUUGUGUAUAUGCAUGUGUGUGUGUGCGUGUGUGUACCGUUUCCGCUCCAAGCCAAGCAAGUUUGUGUUUGGAUAGAGGGGAACUUAACUAUUAACUACA	0.159
CCUCUUCUGGCCUGCCUCCUUGGCAACGACAUAAUCCCAGAGGGCAUGUUUGAAAGCUUCCGGUACAAAUGCUUAUCGUCCUACACCUCUGUAAAAGAGAACUUUGACAAAAAAGGUAAC	0.0857

Set 3 — technique: protein binding microarray; molecule type: double-stranded DNA, one strand shown; medium: in vitro; concentration: not given; reference: not given; reading: higher = stronger binding
Target: Histone acetyltransferase KAT6A, both winged helices, GST fusion (KAT6A, Homo sapiens, UniProt Q92794, residues 1-181)
Notes: 8-mer, flanks averaged, mean of 2 arrays, mostly near background
Residues (chain): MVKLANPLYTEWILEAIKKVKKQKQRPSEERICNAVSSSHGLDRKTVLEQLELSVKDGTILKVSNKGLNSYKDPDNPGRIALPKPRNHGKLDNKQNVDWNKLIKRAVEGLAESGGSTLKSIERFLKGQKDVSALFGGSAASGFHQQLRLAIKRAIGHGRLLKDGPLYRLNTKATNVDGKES
Oligonucleotide	E-score
GTGTGAAC	0.0155
ACTAACAC	0.0466
CGGTTGAA	0.125
CCGACTGA	0.0425
TAAACGTA	-0.0153
CGCCAGTA	-0.00368
AATTTCTA	-0.0837
CATTCCTC	-0.198
ATATCTGG	-0.236
CTGCCTTA	-0.162
ACCATCGT	-0.0893
AGAAGGAC	-0.201
CAAAGGGG	-0.251
ACAAGCAC	0.0945
GAAAGTTA	-0.0918
CGTTGATA	0.125

Set 4 — technique: RNA Bind-n-Seq; molecule type: RNA; medium: in vitro; concentration: 365 nM; reference: no-protein control; reading: higher = stronger binding
Target: RNA binding protein fox-1 homolog 2, RRM domain, GST-SBP tag (RBFOX2, Homo sapiens, UniProt O43251-10, residues 100-194)
Notes: natural RNA segment, single round, ends assumed
Shared flanks, not repeated: GGGAGUUCUACAGUCCGACGAUC … UGGAAUUCUCGGGUGCCAA
Construct (chain): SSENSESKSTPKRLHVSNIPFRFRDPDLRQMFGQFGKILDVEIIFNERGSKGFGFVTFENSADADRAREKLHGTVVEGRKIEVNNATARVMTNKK
Oligonucleotide	RBNS enrichment (R)
UCAGUGAAAAAUGUUAAGAAGUUGAUGCAAGCUGCAUGCUCCUUGUUAAGAUGCAGGCUUUGCAUAUCACCAGGUCACUUAGAAUAUUCUAACAGUUACUCUGAAGAUGU	2.35
UCAUAUAUGUAUCCAUUCUGUAGAACACAUCAUGUUAAUAUAGUAUACAUUUAAAAAAAUACUACUUUUUAAAUGGUAGUUUUAAAAUAACAGUAUCUUACUUGUUGCCA	0.576
UCCAGGUGCGCACUUUAAAGAAAGUGGCCACCAGGUGUGAUGGUGCAGUCCUAUAGUAACCGAGCUUGCACUCGGGAGGUAGGAAGCCAGAGGCCAGCCUCAAGGUGGCC	0.183
UGGUUAAGUUGGCUUCUGUUUCUAGUUGAGGAGUUUCCUAAAAGUUCAUAACAGUGCCAUUGUCUUUAUAUGAACAUAGACUAGAGAAACCGUCCUCUUUUUCCAUCAUA	0.479
CUCUGGUGCUGUAUAAAGGGAAUAUUAAACUAGAUGUAAAUCAAAGUAUAUGUUUGGCUCAUUUGAGCAUUUUGGAAUAUUUGAGAAUGUAUGAUACAUGUAAAAUUAAA	1.64
GUAGCUGGGUAAUCAAAAAUGUUUAGUCAUUGAUUCAAUGUGAACGAUUACGGUCUUUAUGACCAAGAGUCUGAAAAUCUUUUUGUUAUGCUGUUUAGUAUUCGUUUGAU	0.328
CAUCCCUAGCACCACAGAGCAGGGAGGGGACACAGAUUUAGGAGAGAUUUGUCUUUUUCUCCUUUGGCUGUGUGUUGUCCAGGGAUAUAUAUUUCCUAAAAUCUUUUUAA	0.407
CAGAUCUGCAGCCUCGGGGACUCCCAGGUACACAGCAUCCUACUGUAACCUUGGAAGCUGACCAAAACCUGUUUCUACUGAGAAGACAGAUACAUCCUUACCCCUAGAAG	0.24
GGAAUGUCGGGACCACACUGUGCGGCUUCUCGGCACAAAGCGGAGGGAGGCUGUGGUCGCUGCCGGCCUAGGUGUCCCAGGUGCCCCGCCUUUCUCUGGGACACAGUUGG	0.394
ACCUUCAAGCACCCUGUUCCCUCUUUCUUUCUUUUGUGUUGGAUUUGUUUAAAAACCAAAUAAGCAUCUGUGUAACCUCCACAGUAGCAUUUCUUAUUUGUUUGGUCACU	2.33
AAAAUUAACUGGGUGUGGUGGCGCGUGCCUGUAAUCCCAGCUACUCGGGAAGCUGAGGCAGGUGAAUUGUUUGAACCUGGGAGGUGGAGGUUGCAGUGAGCAGAGAUCAC	0.872
UGCGGGAAAUUCAGUCUUGAUUUAACCUUAAUUUUACAGCCCUUGGCUUGUGUUAUCGGACAUUCUAAUGCAUAUUUAUAAGAGAAGUUUAACAAGUAUUUAUUCCCAUA	0.632

Repeated from above (set 1):
Oligonucleotide	fitted relative affinity [z-score]
TGAGGTTTCCTTCTCCTTTAGTGCTAG	10.1
CTAGAACTGGGGACTGGATTAGTGCTA	-0.631
GACGGTATGGGTTTCGGGACGTGCTAG	1.42
TTAGGTAACGGTCTCGGTTAGTGCTAG	0.472
CAGATTTGGCATATCTATTTGTGCTAG	0.618
GCATCTATCTTAAATAGGGACGTGCTA	0.985
